Published values pooled from the literature.
Each numbered part is a random draw from the data of one study; scales do not carry over between parts.

Set 1
Target: Sal-like protein 4, full length isoform A (SALL4, Homo sapiens, UniProt Q9UJQ4, residues 1-1053)
Chain of UniProt Q9UJQ4 (whole entry, looked up): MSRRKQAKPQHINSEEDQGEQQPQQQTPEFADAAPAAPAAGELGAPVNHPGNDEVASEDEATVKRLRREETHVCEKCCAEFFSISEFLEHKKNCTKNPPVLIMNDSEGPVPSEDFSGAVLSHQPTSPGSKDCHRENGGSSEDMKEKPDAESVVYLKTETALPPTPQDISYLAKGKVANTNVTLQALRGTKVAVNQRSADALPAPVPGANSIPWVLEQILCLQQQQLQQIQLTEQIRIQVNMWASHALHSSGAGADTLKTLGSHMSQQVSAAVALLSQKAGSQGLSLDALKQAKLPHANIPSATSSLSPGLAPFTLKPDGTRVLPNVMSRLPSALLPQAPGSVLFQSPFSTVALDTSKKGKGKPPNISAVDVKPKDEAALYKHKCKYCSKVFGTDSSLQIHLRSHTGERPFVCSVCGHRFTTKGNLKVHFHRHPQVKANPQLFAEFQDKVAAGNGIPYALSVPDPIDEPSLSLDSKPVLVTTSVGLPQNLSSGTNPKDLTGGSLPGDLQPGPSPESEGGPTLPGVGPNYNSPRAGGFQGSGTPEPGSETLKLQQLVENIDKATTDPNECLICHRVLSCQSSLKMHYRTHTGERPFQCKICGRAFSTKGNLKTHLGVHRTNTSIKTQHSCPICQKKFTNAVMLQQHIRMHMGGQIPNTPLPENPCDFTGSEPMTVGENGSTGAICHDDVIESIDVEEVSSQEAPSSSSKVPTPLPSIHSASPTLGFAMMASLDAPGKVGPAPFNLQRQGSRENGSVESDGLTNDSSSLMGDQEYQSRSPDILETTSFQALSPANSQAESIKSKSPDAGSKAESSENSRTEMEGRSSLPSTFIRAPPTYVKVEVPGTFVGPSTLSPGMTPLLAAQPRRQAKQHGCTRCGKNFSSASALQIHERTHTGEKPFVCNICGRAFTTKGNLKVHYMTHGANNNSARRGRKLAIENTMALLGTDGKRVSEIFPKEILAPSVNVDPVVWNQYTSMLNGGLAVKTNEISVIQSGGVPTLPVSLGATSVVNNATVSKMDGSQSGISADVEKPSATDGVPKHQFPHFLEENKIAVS
Method: universal PBM
Form: double-stranded DNA, one strand shown
Medium: in vitro
Tested at: 600 nM
Notes: 8-mer, flanks averaged, mean of replicates
Reading: higher = stronger binding
| Strand | E-score |
| --- | --- |
| CCCCTGTA | -0.0826 |
| GTGTGTGA | 0.0175 |
| AGCTTCTG | -0.201 |
| CTCGACTC | -0.17 |

Set 2
Target: RNA binding protein fox-1 homolog 2, RRM domain, GST-SBP tag (RBFOX2, Homo sapiens, UniProt O43251-10, residues 100-194)
Method: RNA Bind-n-Seq
Form: RNA
Medium: in vitro
Tested at: 365 nM
Notes: natural RNA segment, single round, ends assumed
Relative to: no-protein control
Reading: higher = stronger binding
All sequences stand within: GGGAGUUCUACAGUCCGACGAUC … UGGAAUUCUCGGGUGCCAA
Residues (chain): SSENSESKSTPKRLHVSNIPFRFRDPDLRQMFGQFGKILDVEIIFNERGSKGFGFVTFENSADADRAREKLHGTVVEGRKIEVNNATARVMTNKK
| Strand | RBNS enrichment (R) |
| --- | --- |
| CUAUAGACUGCCUCCAGCCGCCCUCCAGUGCUGUGGAGAGACUGUCCCCAGCCUGAGGGACUCUCCUCGGGCCCUCGCCUCUCUACCAAGCACAACACUAAUCCUGUUUC | 0.249 |
| CGGGGUCUGAAGACUGUCUUCCUAUCUGCUUCUUGCGGCUGAGGAGAGGAGCAGUUCAGUUUACAAAACAAGUGCAAAUUACCAAACUCAAAGCUUAUUUGAGUAGAAUG | 1.26 |
| UGAAGAGGACAAAUAGUUUAUUUAAAGCAUUUGUUCCAAUAAAAUAAAUAGAGGGAAACUUGGAUGCUAAAAUUACAUGAAUAGGAAUCUUCCUGGCACUUAGUGUUUCU | 0.359 |
| UGUGAGAAGUCACUCACACUGGCCACAAGGACGCUGGCUACUGUCUAUUAAAAUUCUGAUGUUUCUGUGAAAUUCUCAGAGUGUUUAAUUGUACUCAAUGGUAUCAUUAC | 0.217 |
| AAAGAAUAAAAGCAUGUACUUCACAGCUAGCAUGUUCACAGAUUUGAAAGAAGUUUCAUUAAAAGCACCAUUGCUUUCUGUACUGCGUCAGUGCCUCAUUGUAUCAUCCU | 3.25 |
| GUGACUUUAUAAAUACAGUUUUAAAACAUUUCACAUGCAUGGUAGCACGCAGAGGGUUUUGUUGUGGAUGUGUUUGUUUGUUUGUUUGUUUGUUUUAACAUGUUCUUUUA | 6.7 |

Set 3
Target: RING finger protein unkempt homolog, zinc fingers 1-6, GST-SBP tag (UNK, Homo sapiens, UniProt Q9C0B0, residues 30-357)
Chain of UniProt Q9C0B0 (30-357, looked up): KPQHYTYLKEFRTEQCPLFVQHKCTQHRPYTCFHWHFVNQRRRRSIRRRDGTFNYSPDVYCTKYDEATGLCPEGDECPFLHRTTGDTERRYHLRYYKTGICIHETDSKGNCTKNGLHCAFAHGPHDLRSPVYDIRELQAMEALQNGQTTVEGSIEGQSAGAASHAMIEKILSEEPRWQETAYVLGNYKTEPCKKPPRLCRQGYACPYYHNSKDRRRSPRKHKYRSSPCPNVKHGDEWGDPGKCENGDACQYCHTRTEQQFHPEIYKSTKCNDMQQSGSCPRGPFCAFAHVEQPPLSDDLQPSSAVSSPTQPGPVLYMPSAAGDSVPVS
Method: RNA Bind-n-Seq
Form: RNA
Medium: in vitro
Tested at: not given
Notes: RNA with constant flanks, human-mouse chimeric sites, ends assumed
Relative to: input RNA pool
Reading: higher = stronger binding
| Strand | bound/input enrichment [ratio] |
| --- | --- |
| GGGAGUUCUACAGUCCGACGAUCCUGUGACUGAUGGCAGCUACCUGAGUGGCAGCUGAAGUUGACUCCCUCUCCUUGCCUGAACCCCCCCCCACUGCCCCCCCAUCCCCCAGUGUCGGCUGAGAUGUUGCCAGCAGACAGUUCCAACAGAGGAUUGAGCAUCA | 0.661 |
| GGGAGUUCUACAGUCCGACGAUCAGAGAUAAGACAUCCAGGAACAUGCGAGGCUCCCGGAUGAAUGGACUGCCUAGCCCCACUCACAGCGCCCACUGUAGCUUCUACCGAACCAGAACCUUGCAGGCACUGAGUAAUGAGAAGCAACAGAGGAUUGAGCAUCA | 0.116 |
| GGGAGUUCUACAGUCCGACGAUCAUUCCGAUUAUGGACACCGGUGAAAACCCAGAGGUUCCCUUCCCUCGGGACAUGAUUGACUUAGAGGCCAAUUUCGAGAAGAUUGAAAAUGAACUGAAGGAAAUCAACACAAACCAGGAACAACAGAGGAUUGAGCAUCA | 0.101 |
| GGGAGUUCUACAGUCCGACGAUCGCUCCUCCCCGCUCUGCCCCUGCCUGCCUUUUGGCAAGGACCAGAAUCCAGCUUUCUUUUAAAACUCUCAGUGUAACUGUAUCCCGUGACAUUUCAUUUUUUUUAAAUAGUGUAUUUUUUCAACAGAGGAUUGAGCAUCA | 5.3 |

Further values, each from its own experiment
| Molecule | target | test | system | setting | how to read | quantity | result |
| --- | --- | --- | --- | --- | --- | --- | --- |
| PhoQ, residues 284 288 289 292 302 303 SSLVEF | PhoP, residues 12 14 15 18 19 NFCKL (Escherichia coli, UniProt P23836) | Sort-seq, item: YFP reporter | E. coli | PhoQ-PhoP variant library, together with: 10 µM Mg2+ | relative to: high Mg2+ state, higher = stronger signaling | fold induction | 1.8 |

Excerpt of the above (set 2):
| Strand | RBNS enrichment (R) |
| --- | --- |
| UGUGAGAAGUCACUCACACUGGCCACAAGGACGCUGGCUACUGUCUAUUAAAAUUCUGAUGUUUCUGUGAAAUUCUCAGAGUGUUUAAUUGUACUCAAUGGUAUCAUUAC | 0.217 |
| AAAGAAUAAAAGCAUGUACUUCACAGCUAGCAUGUUCACAGAUUUGAAAGAAGUUUCAUUAAAAGCACCAUUGCUUUCUGUACUGCGUCAGUGCCUCAUUGUAUCAUCCU | 3.25 |
| GUGACUUUAUAAAUACAGUUUUAAAACAUUUCACAUGCAUGGUAGCACGCAGAGGGUUUUGUUGUGGAUGUGUUUGUUUGUUUGUUUGUUUGUUUUAACAUGUUCUUUUA | 6.7 |
